Assay results gathered from unrelated publications.
Lines come from different studies, so protocols differ. Several values in a cell are separate wells, animals, samples, runs or records. ± marks the error that the study gave.
T1: ssDNA, aptamer; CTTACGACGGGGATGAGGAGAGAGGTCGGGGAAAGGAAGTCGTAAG
UniProt P51575, sequence (whole entry, unmodified, looked up): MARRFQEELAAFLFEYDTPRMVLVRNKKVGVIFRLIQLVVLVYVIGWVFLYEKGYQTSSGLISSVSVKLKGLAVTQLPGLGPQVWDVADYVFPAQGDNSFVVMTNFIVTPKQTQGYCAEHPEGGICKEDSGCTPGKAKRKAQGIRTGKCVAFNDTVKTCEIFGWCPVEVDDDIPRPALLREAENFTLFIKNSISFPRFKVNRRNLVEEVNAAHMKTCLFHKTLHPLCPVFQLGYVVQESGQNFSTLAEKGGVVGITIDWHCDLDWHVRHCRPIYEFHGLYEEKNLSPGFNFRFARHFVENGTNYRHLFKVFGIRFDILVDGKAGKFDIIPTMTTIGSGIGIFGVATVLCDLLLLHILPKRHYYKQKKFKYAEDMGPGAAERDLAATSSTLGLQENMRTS
UniProt Q07011, sequence (whole entry, looked up): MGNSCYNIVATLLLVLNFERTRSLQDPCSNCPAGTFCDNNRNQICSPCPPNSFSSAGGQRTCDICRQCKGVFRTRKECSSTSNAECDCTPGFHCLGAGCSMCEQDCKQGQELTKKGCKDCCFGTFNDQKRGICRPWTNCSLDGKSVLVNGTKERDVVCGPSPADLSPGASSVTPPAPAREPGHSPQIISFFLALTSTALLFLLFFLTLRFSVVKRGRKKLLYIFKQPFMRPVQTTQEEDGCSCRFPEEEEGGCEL
UniProt Q8IUN9, sequence (whole entry, unmodified, looked up): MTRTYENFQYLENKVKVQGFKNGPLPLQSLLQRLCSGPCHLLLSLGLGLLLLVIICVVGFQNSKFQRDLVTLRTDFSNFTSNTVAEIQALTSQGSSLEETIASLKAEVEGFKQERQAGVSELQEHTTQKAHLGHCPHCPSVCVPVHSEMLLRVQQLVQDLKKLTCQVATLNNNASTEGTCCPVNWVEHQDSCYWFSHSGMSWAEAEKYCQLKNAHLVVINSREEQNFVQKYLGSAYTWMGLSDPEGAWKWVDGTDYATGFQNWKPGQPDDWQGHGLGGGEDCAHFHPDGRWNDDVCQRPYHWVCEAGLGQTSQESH
UniProt Q96NY8, sequence (whole entry, looked up): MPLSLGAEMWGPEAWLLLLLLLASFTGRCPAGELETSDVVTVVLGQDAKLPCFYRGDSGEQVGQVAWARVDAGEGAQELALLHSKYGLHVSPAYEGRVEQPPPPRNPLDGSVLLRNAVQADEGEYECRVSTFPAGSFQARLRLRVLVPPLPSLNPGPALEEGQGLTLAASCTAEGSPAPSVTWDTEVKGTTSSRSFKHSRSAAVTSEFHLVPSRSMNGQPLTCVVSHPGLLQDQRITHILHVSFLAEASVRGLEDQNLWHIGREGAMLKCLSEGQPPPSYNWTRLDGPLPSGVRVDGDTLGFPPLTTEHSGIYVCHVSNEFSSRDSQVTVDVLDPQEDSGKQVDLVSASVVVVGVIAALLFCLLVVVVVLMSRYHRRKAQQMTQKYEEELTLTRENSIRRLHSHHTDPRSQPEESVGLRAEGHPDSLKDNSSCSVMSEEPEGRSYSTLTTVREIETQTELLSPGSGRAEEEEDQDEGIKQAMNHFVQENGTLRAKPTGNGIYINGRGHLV
UniProt P0A8V2, sequence (whole entry, looked up): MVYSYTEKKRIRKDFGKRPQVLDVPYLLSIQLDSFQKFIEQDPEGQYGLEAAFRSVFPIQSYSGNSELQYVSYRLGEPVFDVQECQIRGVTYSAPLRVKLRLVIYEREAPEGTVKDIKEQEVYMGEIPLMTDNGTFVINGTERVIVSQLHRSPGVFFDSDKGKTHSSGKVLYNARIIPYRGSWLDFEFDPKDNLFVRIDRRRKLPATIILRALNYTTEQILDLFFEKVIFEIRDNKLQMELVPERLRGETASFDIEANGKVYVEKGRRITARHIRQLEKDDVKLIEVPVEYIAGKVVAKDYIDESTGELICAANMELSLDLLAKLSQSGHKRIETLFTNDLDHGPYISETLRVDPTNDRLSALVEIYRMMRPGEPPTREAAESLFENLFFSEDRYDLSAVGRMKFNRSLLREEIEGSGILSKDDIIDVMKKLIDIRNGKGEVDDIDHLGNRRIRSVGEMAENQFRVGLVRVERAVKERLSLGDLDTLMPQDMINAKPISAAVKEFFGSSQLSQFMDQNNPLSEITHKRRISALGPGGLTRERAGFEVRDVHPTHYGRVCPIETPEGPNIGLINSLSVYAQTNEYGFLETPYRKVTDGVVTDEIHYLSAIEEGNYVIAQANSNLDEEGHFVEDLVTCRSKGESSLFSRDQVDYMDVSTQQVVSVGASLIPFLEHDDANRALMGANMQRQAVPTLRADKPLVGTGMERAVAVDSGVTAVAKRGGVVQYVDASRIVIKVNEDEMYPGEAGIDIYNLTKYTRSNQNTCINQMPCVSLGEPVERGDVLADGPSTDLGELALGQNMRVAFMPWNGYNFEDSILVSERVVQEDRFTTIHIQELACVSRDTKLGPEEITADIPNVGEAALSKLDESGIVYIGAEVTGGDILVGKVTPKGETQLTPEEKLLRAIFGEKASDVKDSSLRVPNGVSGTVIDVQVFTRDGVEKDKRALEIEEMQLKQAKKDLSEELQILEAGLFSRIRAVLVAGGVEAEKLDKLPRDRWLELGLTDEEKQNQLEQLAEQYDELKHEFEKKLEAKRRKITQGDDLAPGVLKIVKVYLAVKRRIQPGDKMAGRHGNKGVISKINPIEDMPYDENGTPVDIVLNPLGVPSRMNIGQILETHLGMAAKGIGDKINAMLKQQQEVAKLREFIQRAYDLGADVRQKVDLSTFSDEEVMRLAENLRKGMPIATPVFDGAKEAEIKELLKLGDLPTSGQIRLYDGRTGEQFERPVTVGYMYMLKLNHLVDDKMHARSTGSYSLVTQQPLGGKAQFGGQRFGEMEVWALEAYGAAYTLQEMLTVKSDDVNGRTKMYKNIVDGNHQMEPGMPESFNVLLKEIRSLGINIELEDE
UniProt Q96EB6, sequence (whole entry, looked up): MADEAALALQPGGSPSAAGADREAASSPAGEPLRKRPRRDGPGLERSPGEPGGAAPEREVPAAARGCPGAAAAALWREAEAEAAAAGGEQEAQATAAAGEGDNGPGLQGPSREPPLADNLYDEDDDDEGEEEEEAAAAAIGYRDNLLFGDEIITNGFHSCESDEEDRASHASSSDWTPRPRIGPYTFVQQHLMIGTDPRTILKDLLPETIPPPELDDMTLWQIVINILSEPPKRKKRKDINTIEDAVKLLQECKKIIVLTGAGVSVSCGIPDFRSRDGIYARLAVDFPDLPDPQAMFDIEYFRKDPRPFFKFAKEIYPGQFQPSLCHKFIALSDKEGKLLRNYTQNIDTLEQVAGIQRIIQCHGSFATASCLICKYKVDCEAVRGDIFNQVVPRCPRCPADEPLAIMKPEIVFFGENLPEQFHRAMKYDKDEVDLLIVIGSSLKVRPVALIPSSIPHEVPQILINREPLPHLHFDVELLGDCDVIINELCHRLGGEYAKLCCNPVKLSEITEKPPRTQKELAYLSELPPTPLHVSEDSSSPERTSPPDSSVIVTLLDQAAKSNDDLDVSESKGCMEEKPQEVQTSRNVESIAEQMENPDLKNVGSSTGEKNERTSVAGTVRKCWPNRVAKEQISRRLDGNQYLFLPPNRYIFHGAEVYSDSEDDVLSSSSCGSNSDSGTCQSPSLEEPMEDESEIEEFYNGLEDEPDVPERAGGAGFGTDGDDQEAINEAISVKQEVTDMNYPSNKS
UniProt Q8NER1, sequence (whole entry, looked up): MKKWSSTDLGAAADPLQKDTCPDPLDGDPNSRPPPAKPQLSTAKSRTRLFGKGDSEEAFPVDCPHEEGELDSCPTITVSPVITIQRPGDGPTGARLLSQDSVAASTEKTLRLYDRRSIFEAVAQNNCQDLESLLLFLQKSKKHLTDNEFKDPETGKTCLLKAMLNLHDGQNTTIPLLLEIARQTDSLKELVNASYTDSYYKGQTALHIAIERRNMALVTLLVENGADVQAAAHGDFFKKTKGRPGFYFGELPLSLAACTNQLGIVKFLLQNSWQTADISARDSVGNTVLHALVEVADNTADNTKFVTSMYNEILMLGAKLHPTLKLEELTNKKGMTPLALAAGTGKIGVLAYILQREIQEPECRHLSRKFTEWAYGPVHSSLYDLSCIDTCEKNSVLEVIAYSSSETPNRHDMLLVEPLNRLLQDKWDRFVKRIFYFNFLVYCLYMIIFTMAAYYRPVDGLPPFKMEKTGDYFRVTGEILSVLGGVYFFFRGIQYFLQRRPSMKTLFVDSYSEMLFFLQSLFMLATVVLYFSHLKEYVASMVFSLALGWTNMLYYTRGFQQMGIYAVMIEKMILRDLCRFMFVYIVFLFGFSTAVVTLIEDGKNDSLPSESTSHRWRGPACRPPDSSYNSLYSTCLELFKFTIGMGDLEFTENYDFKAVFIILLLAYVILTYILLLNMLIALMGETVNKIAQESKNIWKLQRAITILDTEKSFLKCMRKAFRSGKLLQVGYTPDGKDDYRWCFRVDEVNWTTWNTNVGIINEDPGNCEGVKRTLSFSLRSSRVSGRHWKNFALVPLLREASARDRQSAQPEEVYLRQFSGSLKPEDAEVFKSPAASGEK
UniProt Q16774, sequence (whole entry, looked up): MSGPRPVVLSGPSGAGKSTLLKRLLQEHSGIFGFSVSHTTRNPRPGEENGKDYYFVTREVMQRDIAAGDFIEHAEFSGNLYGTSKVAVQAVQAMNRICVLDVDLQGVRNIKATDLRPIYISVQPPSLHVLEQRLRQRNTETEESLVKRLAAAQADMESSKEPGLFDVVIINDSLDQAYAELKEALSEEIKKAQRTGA

SMILES = CCCC[C@@H]1NC(=O)[C@H](Cc2ccc(O)cc2)NC(=O)[C@@H]2CCCN2C(=O)[C@H](CC(=O)O)NC(=O)[C@H](C)NC(=O)[C@H](Cc2ccccc2)NC(=O)[C@@H]2CSCCC(=O)N3CN(CN(C3)C(=O)CCSC[C@H](NC(C)=O)C(=O)N[C@@H](CC(C)(C)C)C(=O)N3CCC[C@H]3C(=O)N[C@@H](CCC(=O)O)C(=O)N[C@H](CCCCNC(=O)CCc3cn(CCOCCOCCOCCN(CCOCCOCCOCCC(=O)N[C@H]4CSCCC(=O)N5CN6CN(C5)C(=O)CCSC[C@H](NC(=O)[C@@H](CC(=O)O)NC(=O)[C@H](Cc5cccc7ccccc57)NC(=O)[C@@H]5CCCN5C4=O)C(=O)N[C@@H](CCSC)C(=O)N[C@@H](CCCCNC(=N)N)C(=O)N[C@@H](CC(=O)O)C(=O)N[C@@H](Cc4c[nH]c5ccccc45)C(=O)N[C@@H](CO)C(=O)N[C@@H]([C@@H](C)O)C(=O)N4CCC[C@H]4C(=O)N4C[C@H](O)C[C@H]4C(=O)N[C@@H](Cc4c[nH]c5ccccc45)C(=O)N[C@H](C(N)=O)CSCCC6=O)CCOCCOCCOCCn4cc(CCC(=O)NCCCC[C@H]5NC(=O)[C@H](CCC(=O)O)NC(=O)[C@@H]6CCCN6C(=O)[C@H](CC(C)(C)C)NC(=O)[C@@H](NC(C)=O)CSCCC(=O)N6CN7CN(C6)C(=O)CCSC[C@H](NC(=O)[C@H](Cc6ccc(O)cc6)NC(=O)[C@@H]6CCCN6C5=O)C(=O)N[C@@H](Cc5ccccc5)C(=O)N[C@@H](C)C(=O)N[C@@H](CC(=O)O)C(=O)N5CCC[C@H]5C(=O)N[C@@H](Cc5ccc(O)cc5)C(=O)N[C@@H](CCCC)C(=O)NCCSCCC7=O)nn4)nn3)C(=O)N3CCC[C@H]3C(=O)N[C@@H](Cc3ccc(O)cc3)C(=O)N2)C(=O)CCSCCNC1=O; target = Tumor necrosis factor receptor superfamily member 9/Nectin-4 (Homo sapiens, UniProt Q07011+Q96NY8); test = reporter gene, agonist; system = HT-1376 coculture with reporter cells; scale = baseline: background; endpoint = Emax; value = 75 fold
SMILES = O=C1CCC(N2Cc3cc(CNC(=O)C(F)(F)c4ccc(Cl)cc4)ccc3C2=O)C(=O)N1 (stereo not shown); target = GSPT1/CRBN, 300-496; with DDB1 (Homo sapiens, UniProt P15170+Q96SW2); test = degrader, AlphaLISA; conditions = 1 µM; scale = baseline: reference compound; endpoint = ternary complex formation; value = 100%
SMILES = Cc1cc(-c2cccc(-n3cc(COC(=O)[C@]4(C)C=C(C(=O)OC(C)(C)C)C(=O)CC4)nn3)c2)c(C)c2c1CNCC2; target = MAPK8 (Homo sapiens, UniProt P45983); test = D-peptide binding, inhibitor, FP peptide displacement; conditions = 12.5 µM; scale = lower is stronger displacement; endpoint = fraction bound; value = 0.655
SMILES = COc1cc(F)ccc1-c1ncnc(Nc2cccc(C[S@](C)(=N)=O)c2)n1; target = PIM3 (Homo sapiens, UniProt Q86V86); test = kinase activity; conditions = 10 µM, with: 10 µM ATP; endpoint = remaining activity; value = 90%
SMILES = Nc1nc2c(ncn2[C@@H]2O[C@H](COP(=O)(O)O)[C@@H](O)[C@H]2O)c(=O)[nH]1; target = GUK1 (Homo sapiens, UniProt Q16774); test = substrate, NADH-coupled; conditions = NaCl 10 mM, enzyme 2 nM; endpoint = Vmax; value = 0.0947 µM/s
SMILES = Nc1nc2c(ncn2[C@@H]2O[C@H](COP(=O)(O)OP(=O)(O)OP(=O)(O)O)[C@@H](O)[C@H]2O)c(=O)[nH]1; target = DNA-directed RNA polymerase subunit beta' / DNA-directed RNA polymerase subunit beta (rpoC/rpoB, Escherichia coli, UniProt P0A8T7+P0A8V2); test = RNA extension, rapid quench-flow; system = Escherichia coli, elongation complex, 6-MI template; conditions = 200 µM, 25 °C, slow complex fraction; endpoint = nucleotide addition rate; value = 1.4 ± 0.4 s⁻¹
SMILES = CC(=O)N[C@H]1[C@@H](OC(C)C(N)C(=O)O)O[C@H](CO[C@]2(C(=O)O)C[C@H](O)[C@@H](NC(C)=O)[C@H]([C@H](O)[C@H](O)CO)O2)[C@H](O)[C@@H]1O (stereo partly shown); target = CLEC10A, carbohydrate recognition domain (Homo sapiens, UniProt Q8IUN9); test = binding to carbohydrate recognition domain, isothermal titration calorimetry; conditions = 293 K; endpoint = -TΔS; value = 6 ± 1 kcal/mol
SMILES = Nc1ncnc2c1ncn2[C@@H]1O[C@H](COP(=O)(O)CP(=O)(O)OP(=O)(O)O)[C@@H](O)[C@H]1O; target = P2X purinoceptor 1 (P2RX1, Homo sapiens, UniProt P51575, F188L); test = calcium influx; conditions = 31.6 nM; scale = baseline: ionomycin response; endpoint = calcium influx; value = 7.75% and 8.83% and 15.8%
SMILES = CC(=O)Nc1nc2c(Oc3cc(-c4ccc(C(F)(F)F)cc4)ncn3)cccc2s1; target = TRPV1 (Homo sapiens, UniProt Q8NER1); test = BRET; system = HEK293T; conditions = 10 µM; scale = baseline: capsaicin 500 nM; endpoint = K+ pore BRET signal decrease; value = ~30%
SMILES = C[C@H]1O[C@@H](O[C@H]2CC[C@@]3(C)[C@@H](CC[C@]4(C)[C@@H]3C=CC3=C5CC(C)(C)CC[C@]5(CO)[C@@H](O)C[C@]34C)[C@]2(C)CO)[C@H](O)[C@@H](O[C@@H]2O[C@H](CO)[C@@H](O)[C@H](O)[C@H]2O)[C@H]1O; target = SIRT1 (Homo sapiens, UniProt Q96EB6); test = binding, microscale thermophoresis; conditions = 131 nM; endpoint = MST normalised fluorescence; value = 884 a.u.
SMILES = COc1cccc(OC[C@@H]2CN(CC(=O)N3CCc4ccccc43)CCO2)c1; target = HTR2B (Homo sapiens, UniProt P41595); test = radioligand binding; conditions = concentration not given, with: [3H]LSD; endpoint = inhibition; value = 80.8%
SMILES = N[C@@H](CC(=O)O)C(=O)O; target = Methyl-accepting chemotaxis protein, ligand-binding domain (Pectobacterium atrosepticum, UniProt Q6D6I9); test = isothermal titration calorimetry; system = SCRI1043; conditions = pH 6.0, 25 °C, with: 30 µM PacC ligand-binding domain; endpoint = ΔH; value = -1.7 ± 0.6 kcal/mol
SMILES = Nc1ncnc2c1ncn2[C@@H]1O[C@H](COP(=O)(O)OP(=O)(O)O)[C@@H](O)[C@H]1O; target = T1, ssDNA, aptamer; test = ITC; endpoint = Kd; value = 22.7 µM
